# Experimental data from different studies.
# Numbered parts are unrelated; each lists some results of a single study.

# Block 1
# Target: Ras GTPase-activating protein-binding protein 1, C-terminal RGG region (G3BP1, Homo sapiens, UniProt Q13283)
# Sequence of UniProt Q13283 (whole entry, looked up): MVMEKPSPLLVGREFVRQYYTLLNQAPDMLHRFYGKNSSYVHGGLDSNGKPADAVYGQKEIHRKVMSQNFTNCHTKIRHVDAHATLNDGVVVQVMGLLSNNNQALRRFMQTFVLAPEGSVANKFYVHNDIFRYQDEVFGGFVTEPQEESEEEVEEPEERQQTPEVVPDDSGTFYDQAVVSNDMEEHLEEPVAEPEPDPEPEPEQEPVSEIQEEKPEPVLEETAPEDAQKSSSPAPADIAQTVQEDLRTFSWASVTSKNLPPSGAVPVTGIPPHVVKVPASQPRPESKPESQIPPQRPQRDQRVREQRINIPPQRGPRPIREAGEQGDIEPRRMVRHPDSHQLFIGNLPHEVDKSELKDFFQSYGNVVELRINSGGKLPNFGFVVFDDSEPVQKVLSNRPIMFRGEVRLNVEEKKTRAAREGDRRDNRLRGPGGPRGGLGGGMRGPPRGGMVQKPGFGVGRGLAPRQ
# Method: RNA Bind-n-Seq
# Form: RNA
# Matrix: in vitro
# Concentration: 1 µM
# Setting: whole 134-nt RNA, ends assumed
# Added: 150 mM KCl
# Relative to: input library
# Direction: higher = stronger binding
# Constant ends, left off below: GGGAGUUCUACAGUCCGACGAUC … UGGAAUUCUCGGGUGUCAAGG
Sequence,log2 enrichment
CUCAAGUCCUGUGCUACACAUCGUAUGUACCGAAUCGGGGUGGGUGGGUGGGGAAAGUAUUAUGUUACGCCGUUCGGAUCUGCACUUCCA,2.27
AGUCCUGUGCUACACAUCGUAUGUACCGAAUCGGUUUUUUUGGUUUUUGGAAAAAGGAAAGUAUUAUGUUACGCCGUUCGGAUCUGCACU,-1.86
UGGGAGGUGGAUUUUGUUUAUUUUUUAAGCUCAUUUCCAGGGGUGGGAAUUUUUUUUUAAUAUGUGUCAUGAAUAAAGUUGUUUUUGAAA,3.46
AGUCCUGUGCUACACAUCGUAUGUACCGAAUCGGUUUUUUUGGAAAGGAAAAAAAGGAAAGUAUUAUGUUACGCCGUUCGGAUCUGCACU,-2
CAAGUCCUGUGCUACACAUCGUAUGUACCGAAUCGGGUUGGGGUUGGGGUUGGGGAAAGUAUUAUGUUACGCCGUUCGGAUCUGCACUUC,3.04
AAGUCCUGUGCUACACAUCGUAUGUACCGAAUCGGGGAAAAGGAAAAGGAAAAGGGAAAGUAUUAUGUUACGCCGUUCGGAUCUGCACUU,-1.77
ACCAUGCAGGUAAACAUCUUUGGGAAGUGGGGCAAGGGGGGGAUAGGGAGGGGGGUAACACUUUGGGAACAGGUGGUCCCAGGUCGUUUC,-1.1
UCCUGUGCUACACAUCGUAUGUACCGAAUCGGUUUUUUUGGUUUUUUUGGGUUUUUUUGGAAAGUAUUAUGUUACGCCGUUCGGAUCUGC,-0.494
CACAGACAACACGCACCCACACAGACACAGAGGGAAAGGGUUGGGAUGGGGACAGGGUGCACAGCAGGGCGGGGUAGGACCCCAGCCCCU,-0.32

# Block 2
# Target: Prothrombin, mature alpha-thrombin (F2, Homo sapiens, UniProt P00734)
# Method: aptamer microarray, sandwich
# Form: DNA with 2'F-ANA
# Matrix: in vitro
# Concentration: 200 nM
# Setting: whole 15-mer aptamer, many near background
# Added: Cy3 exosite-II aptamer, 400 nM
# Direction: higher = stronger binding
# Sequence: GGTTGGTGTGGTTGG
Modification,mean fluorescence intensity [a.u.]
2'F-ANA at 1 2 8 10 11 12 14,60.6
2'F-ANA at 1 3 4 6 7 9 11 12 14 15,66.5
2'F-ANA at 1 4 5 8 9 10 13 14 15,47.3
2'F-ANA at 2 3 5 8 10 11 13 14 15,48.1
2'F-ANA at 1 2 4 5 8 9 10 11 12 14,47.5
2'F-ANA at 3 6 7 10 13,479
2'F-ANA at 1 2 7 8 9 10 11 12 14,46.9
2'F-ANA at 1 4 6 10 12 13,50.6
2'F-ANA at 2 5 6 8 9 11 13 15,60.9
2'F-ANA at 6 7 8 10 11 12 14 15,96.4
2'F-ANA at 2 3 6 7 8 12 13 15,971
2'F-ANA at 2 3 6 9 12 14 15,362
2'F-ANA at 6 7 10 13,161
2'F-ANA at 6 7 11 12 13 15,571
2'F-ANA at 2 5 7 9 13 15,54.5
2'F-ANA at 1 2 5 6 8 9 12 13 14 15,49
2'F-ANA at 2 4 7 8 9 10 13,78.2
2'F-ANA at 1 2 3 4 7 8 10 12 14,51.8
2'F-ANA at 2 3 4 6 7 8 9 12,812
2'F-ANA at 2 8 11 14 15,142
2'F-ANA at 2 5 6 7 10 13,44.5
2'F-ANA at 6 7 8 9 10 12 13 14 15,116
2'F-ANA at 2 7 8 14 15,204
2'F-ANA at 1 2 4 10 11 13 14,44.4
2'F-ANA at 1 5 6 7 8 9 11 12 13 14 15,50.7

# Block 3
# Target: RING finger protein unkempt homolog, zinc fingers 1-6, GST-SBP tag (UNK, Homo sapiens, UniProt Q9C0B0, residues 30-357)
# Method: RNA Bind-n-Seq
# Form: RNA
# Matrix: in vitro
# Concentration: not given
# Setting: RNA with constant flanks, human and mouse sites, ends assumed
# Relative to: input RNA pool
# Direction: higher = stronger binding
# Constant ends, left off below: GGGAGUUCUACAGUCCGACGAUC … CAACAGAGGAUUGAGCAUCA
# Construct (chain): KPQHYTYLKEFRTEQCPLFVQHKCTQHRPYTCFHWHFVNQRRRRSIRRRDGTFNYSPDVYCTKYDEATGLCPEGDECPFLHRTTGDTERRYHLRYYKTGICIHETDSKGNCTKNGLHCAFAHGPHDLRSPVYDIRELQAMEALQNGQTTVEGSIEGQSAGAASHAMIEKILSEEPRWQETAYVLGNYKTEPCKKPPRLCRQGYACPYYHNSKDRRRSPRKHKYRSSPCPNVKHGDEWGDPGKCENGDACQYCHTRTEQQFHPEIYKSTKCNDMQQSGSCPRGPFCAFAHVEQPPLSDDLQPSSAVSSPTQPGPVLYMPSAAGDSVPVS
Sequence,bound/input enrichment
AGCAUACUGCCAUCAGCUCCAAAAAACCAGCAUUCAACUUGUCUGCCUUUGGAACACUUUCCACCUCACUUGGGAAUUCUUCAAUUCUUAAAACAAGUCAGCUUGGAGACUCUCCUUUUU,0.166 ratio
CUCUCGCCUUGGCAGAAGUAUAAGUCCUACCUCCUUCCCGUGUGUGCAGUUGUGGUGGCAGUGCUUAUGUGGUACAUCUUCCAUGGUGUGGAUUAAUGAUCCUUUAAAUCUCCUGACAUA,0.0981 ratio
AAAAGCACAAGUGUUCGAACUUCAACUUUUUACUCCAGACUGAGGCUACCCAGGGACAGACUUAGUGGCAGCAGGGUUGCAUCAGCACUGGUCACUCCAGUCCAGCCUGUGUGUAAAAUC,0.271 ratio
UUACUCUAACCUGUUGUCCUCCACAUUCUAUUGUCCUAAUUGUACUGUUUUCUGAUUUGUAUUUAUGUCUUGAGACAGUAACUUUUUGAAUAAAAAUAAACCUACAGUAUGUUGUAUGUU,0.193 ratio
UUUGAAGAGCAGUGUGUUGAAAUGUAUUUCAAUGAAAAAGAUGACAAAUUUCAUUCUGGGAGUGAAGAGAGAAUUCGUGUCACUUUUGAAAGAGUGGAACAGAUGUGCAUUCAGAUUAAA,0.192 ratio
AUGGAGGCGUCCAGCGAGCCGCCGCUGGAUGCUAAGUCCGAUGUCACCAACCAGCUUGUAGAUUUUCAGUGGAAACUGGGUAUGGCUGUGAGCUCAGACACUUGCAGAUCUCUUAAGUAU,0.164 ratio
GUUUACUCUCAGAGCACAGCUCUUACUCAUAAGCAGUCUUAUUAUUCCAUUGCCAAAUGUGUAGCUGCCCUUACUCGAGCAUGCCCUAAAGAGGGACCAGCUGUAGUAGGUCAGUUUAUU,0.143 ratio
UGGCAUGAGCUUUUGAAACCUCAAAGCUCACUUCCAGUGACACACUGUCUGGACAAGGUCAUACCUCCUUAUCCUUCUAAGACUUCUUAAAUAGUGCCACUCCCUGAUGACAAAACAUUC,0.102 ratio

# Block 4
# Target: RNA binding protein fox-1 homolog 2, RRM domain, GST-SBP tag (RBFOX2, Homo sapiens, UniProt O43251-10, residues 100-194)
# Method: RNA Bind-n-Seq
# Form: RNA
# Matrix: in vitro
# Concentration: 365 nM
# Setting: natural RNA segment, single round, ends assumed
# Relative to: no-protein control
# Direction: higher = stronger binding
# Constant ends, left off below: GGGAGUUCUACAGUCCGACGAUC … UGGAAUUCUCGGGUGCCAA
# Target sequence (chain): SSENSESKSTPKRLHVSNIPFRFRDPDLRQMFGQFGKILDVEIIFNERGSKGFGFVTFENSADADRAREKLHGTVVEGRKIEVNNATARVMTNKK
Sequence,RBNS enrichment (R)
GGUUGUCUGGCGCCCUUUUCCUCCAGCCUAAACUGACAUCAUCCUAUGGACUGAGCCGGCCACUCUCUGGCCGAAGUGGCCGCAGGCUGUGCCCCCGAGCUGCCCCCACC,0.367
AUGCUAUUGGGAAACCUCUUCUCCGUGACACAGAAUGUUCUGGGUGGGAGCCGCCCUUCUUCAUCUUAGAGAACCAAGUGCCUCCUGUCUGAAAGGUGAGGGUGGCCUGA,0.219
AUUACGAAAAUAUGCUACUCUGAUGUGUUAUGGUUCCUGAAUUUCUUUUCUUUCUCACCCUCUUUGACCCAGAUUUUAUAGAGCGAGUUUCUCAACCUCUGCACAGUUGA,0.691
AACGCCACCUUCUGAGGAGAGCUCCACCCUCCUCUUCUCCUAACUCCAUCUGAUCGUCCUUUCAGUUUCCCCUUCACCACUGGAUCUCGAGGAGGAGAUGGCCUAGUGUU,0.377
UGGCUCGGGCAAGUGGAAGCACGUGGAGUCAGACAGACCUAAGUCCCAGGCCCAGAUUAGCCACUCGUUAGCUGUGUGACUGACUCUGGGCUAGUCACCUGGCCCCUGUG,0.956
GAAGAGUGGUUACCUAUACCUAGCAUAGUACAAUCAGAACCUCGUGGAGACCACCGGGGACAGGCUUGCGGACGCCGGCUGUUCUUCCCGCCACGAUCUUUCUGUGGUAG,0.252
AUAAUGGGAAUCUCGGAGUUCGACACCAUAGUGACGUUCAGCGUCCUCUGAAUUGUGCUACAUCAGCGAACAAGUCGGCGCUUGAAUUGGAUUUUGAGGUUAUUUUAACC,0.343
GGCUCCUUCAGCAGCUAGAGCUCAGUAUACUAAUGCCCUAUCUUAGUAGAGAUUUCAUAGCUAUUUAGAGAUAUUUUCCAUUUUAAGAAAACCCGACAACAUUUCUGCCA,0.731

# Excerpt of the above (block 3):
Sequence,bound/input enrichment
AUGGAGGCGUCCAGCGAGCCGCCGCUGGAUGCUAAGUCCGAUGUCACCAACCAGCUUGUAGAUUUUCAGUGGAAACUGGGUAUGGCUGUGAGCUCAGACACUUGCAGAUCUCUUAAGUAU,0.164 ratio
UGGCAUGAGCUUUUGAAACCUCAAAGCUCACUUCCAGUGACACACUGUCUGGACAAGGUCAUACCUCCUUAUCCUUCUAAGACUUCUUAAAUAGUGCCACUCCCUGAUGACAAAACAUUC,0.102 ratio
GUUUACUCUCAGAGCACAGCUCUUACUCAUAAGCAGUCUUAUUAUUCCAUUGCCAAAUGUGUAGCUGCCCUUACUCGAGCAUGCCCUAAAGAGGGACCAGCUGUAGUAGGUCAGUUUAUU,0.143 ratio
UUACUCUAACCUGUUGUCCUCCACAUUCUAUUGUCCUAAUUGUACUGUUUUCUGAUUUGUAUUUAUGUCUUGAGACAGUAACUUUUUGAAUAAAAAUAAACCUACAGUAUGUUGUAUGUU,0.193 ratio
